Measurements from different studies.
Uncharacterized protein: Uncharacterized protein (Trypanosoma brucei brucei, UniProt Q386Q8)
TDP1: Tyrosyl-DNA phosphodiesterase 1 (TDP1, Homo sapiens, UniProt Q9NUW8)
Chain of UniProt Q9NUW8 (whole entry, looked up): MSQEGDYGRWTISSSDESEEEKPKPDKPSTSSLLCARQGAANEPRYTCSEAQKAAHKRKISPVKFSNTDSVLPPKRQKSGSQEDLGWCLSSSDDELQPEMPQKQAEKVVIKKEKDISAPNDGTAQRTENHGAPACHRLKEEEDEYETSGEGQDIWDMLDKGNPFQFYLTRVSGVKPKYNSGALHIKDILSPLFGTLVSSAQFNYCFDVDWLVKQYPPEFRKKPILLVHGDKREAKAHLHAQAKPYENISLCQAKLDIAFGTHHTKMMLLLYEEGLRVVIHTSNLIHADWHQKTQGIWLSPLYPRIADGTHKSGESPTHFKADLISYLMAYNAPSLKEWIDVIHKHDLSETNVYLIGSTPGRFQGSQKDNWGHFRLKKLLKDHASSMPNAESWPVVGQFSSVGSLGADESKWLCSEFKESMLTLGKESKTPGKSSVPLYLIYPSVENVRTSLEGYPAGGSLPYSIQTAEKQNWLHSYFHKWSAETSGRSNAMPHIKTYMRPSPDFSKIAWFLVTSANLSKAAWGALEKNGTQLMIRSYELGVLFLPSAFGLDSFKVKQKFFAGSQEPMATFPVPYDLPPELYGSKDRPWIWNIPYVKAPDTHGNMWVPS
Chain of UniProt P07550 (whole entry, looked up): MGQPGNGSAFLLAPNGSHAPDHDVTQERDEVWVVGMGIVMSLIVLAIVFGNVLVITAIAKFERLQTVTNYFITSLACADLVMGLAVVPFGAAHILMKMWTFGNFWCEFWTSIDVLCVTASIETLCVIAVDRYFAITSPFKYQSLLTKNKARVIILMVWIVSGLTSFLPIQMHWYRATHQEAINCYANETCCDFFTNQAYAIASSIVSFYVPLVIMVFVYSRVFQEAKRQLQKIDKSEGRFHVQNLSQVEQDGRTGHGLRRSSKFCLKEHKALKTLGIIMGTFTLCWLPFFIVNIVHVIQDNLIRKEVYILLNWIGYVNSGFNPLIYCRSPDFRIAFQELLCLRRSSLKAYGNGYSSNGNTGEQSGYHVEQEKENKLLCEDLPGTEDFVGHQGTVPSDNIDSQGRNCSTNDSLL
Chain of UniProt P47870 (whole entry, looked up): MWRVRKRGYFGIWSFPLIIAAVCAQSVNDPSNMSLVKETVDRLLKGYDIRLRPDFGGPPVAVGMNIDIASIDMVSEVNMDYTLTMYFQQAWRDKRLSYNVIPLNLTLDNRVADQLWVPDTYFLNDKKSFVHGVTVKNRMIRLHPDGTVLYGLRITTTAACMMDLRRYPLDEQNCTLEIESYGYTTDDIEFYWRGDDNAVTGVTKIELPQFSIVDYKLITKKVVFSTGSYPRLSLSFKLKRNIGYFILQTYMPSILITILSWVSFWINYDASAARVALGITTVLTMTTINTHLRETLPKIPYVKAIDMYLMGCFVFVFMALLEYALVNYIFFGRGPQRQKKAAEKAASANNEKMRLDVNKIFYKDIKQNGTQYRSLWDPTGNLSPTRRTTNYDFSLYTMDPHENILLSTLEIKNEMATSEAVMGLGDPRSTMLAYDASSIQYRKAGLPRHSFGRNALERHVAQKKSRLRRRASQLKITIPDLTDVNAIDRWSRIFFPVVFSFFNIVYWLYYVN
Chain of UniProt P42337 (whole entry, looked up): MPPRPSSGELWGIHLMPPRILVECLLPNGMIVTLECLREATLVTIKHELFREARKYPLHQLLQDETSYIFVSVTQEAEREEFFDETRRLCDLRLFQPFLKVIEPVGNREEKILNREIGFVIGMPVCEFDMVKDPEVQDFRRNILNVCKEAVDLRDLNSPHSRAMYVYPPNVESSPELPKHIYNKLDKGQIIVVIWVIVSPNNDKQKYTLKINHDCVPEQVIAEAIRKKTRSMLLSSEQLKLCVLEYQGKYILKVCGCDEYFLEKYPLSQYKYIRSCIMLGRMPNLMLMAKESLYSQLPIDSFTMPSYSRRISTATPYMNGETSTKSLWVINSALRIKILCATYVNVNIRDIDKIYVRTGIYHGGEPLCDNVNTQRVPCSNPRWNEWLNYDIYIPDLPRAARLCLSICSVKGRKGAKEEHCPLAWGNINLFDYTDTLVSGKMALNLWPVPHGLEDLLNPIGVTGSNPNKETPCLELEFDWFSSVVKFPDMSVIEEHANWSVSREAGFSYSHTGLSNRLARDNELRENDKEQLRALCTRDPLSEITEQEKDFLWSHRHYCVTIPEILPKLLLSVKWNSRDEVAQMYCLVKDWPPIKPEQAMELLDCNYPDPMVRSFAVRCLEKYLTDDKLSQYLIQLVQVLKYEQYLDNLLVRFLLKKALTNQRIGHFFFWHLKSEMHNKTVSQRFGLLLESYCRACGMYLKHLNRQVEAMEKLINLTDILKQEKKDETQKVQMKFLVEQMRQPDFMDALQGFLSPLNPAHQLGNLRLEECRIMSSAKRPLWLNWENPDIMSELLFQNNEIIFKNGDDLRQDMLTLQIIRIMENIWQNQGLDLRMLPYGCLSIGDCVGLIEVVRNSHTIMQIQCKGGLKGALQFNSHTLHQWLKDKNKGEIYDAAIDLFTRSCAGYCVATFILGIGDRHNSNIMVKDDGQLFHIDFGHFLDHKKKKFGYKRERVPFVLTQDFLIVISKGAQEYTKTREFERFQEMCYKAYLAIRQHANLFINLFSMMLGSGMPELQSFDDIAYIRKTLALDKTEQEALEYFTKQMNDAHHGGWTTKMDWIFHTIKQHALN
Chain of UniProt P14867 (whole entry, looked up): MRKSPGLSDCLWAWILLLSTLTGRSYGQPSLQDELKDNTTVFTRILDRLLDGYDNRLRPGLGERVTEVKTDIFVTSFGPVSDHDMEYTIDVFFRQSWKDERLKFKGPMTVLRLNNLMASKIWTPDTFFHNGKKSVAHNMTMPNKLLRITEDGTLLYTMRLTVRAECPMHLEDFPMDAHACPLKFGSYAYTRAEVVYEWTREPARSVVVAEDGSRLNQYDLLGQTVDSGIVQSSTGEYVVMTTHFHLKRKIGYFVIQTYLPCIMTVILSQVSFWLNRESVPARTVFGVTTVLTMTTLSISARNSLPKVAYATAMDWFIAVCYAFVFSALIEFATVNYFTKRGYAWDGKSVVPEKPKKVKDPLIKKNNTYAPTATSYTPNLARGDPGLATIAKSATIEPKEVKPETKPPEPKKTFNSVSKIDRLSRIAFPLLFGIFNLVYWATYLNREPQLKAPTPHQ
Chain of UniProt P0A7A9 (whole entry, looked up): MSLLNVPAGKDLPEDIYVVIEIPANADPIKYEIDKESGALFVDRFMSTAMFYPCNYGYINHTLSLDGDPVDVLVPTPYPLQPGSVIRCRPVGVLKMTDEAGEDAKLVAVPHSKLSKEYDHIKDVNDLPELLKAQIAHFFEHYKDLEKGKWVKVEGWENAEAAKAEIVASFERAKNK
Chain of UniProt P08912 (whole entry, looked up): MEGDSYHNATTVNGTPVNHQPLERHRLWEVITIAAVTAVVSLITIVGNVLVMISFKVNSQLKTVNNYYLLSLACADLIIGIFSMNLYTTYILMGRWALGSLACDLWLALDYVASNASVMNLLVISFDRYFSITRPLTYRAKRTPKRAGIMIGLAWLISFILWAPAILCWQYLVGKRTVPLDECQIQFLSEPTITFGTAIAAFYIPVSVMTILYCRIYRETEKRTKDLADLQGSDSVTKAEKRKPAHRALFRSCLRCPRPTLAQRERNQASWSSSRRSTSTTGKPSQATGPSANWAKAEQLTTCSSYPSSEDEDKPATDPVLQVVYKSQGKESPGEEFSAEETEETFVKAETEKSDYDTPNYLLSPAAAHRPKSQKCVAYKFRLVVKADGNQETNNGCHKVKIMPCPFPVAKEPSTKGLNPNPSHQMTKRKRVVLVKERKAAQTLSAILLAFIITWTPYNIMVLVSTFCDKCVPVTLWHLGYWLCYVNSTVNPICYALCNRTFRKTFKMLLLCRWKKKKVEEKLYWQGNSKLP

CN(Cc1ccc(/C=C/C(=O)NO)cc1)CC12CC3CC(CC(C3)C1)C2 has an inhibition of -2% (alpha1 adrenoceptor; antagonist radioligand binding; 0.05 µM).
The inhibition of N#CSc1sc(N)nc1-c1ccccc1 is reported as 53.8% (Uncharacterized protein; enzyme activity, inhibitor, coupled colorimetric; 30 µM, added: E. coli pyrophosphatase coupling).
The inhibition of COc1ccc2ccccc2c1C=NOCc1ccc2nc(-c3ccccc3)c(Nc3ccc(C(=O)O)cc3)n2c1 (mixture of isomers) is reported as -23.6% (TDP1; enzyme activity, inhibitor; 100 µM, unpurified compound).
The inhibition of Cc1nc2c(F)cc(-c3nc(Nc4ccc(CNC(=O)CCCCCCC(=O)NO)cc4)ncc3F)cc2n1C(C)C is reported as 27% (Phosphatidylinositol 4,5-bisphosphate 3-kinase catalytic subunit alpha isoform, with p65 alpha (Pik3ca, Mus musculus, UniProt P42337); enzyme activity; 1 µM, p110α/p65α)(m mouse).
COc1cccc(NC(=O)N2CCOc3ccccc32)c1 has an inhibition of -1% (Inorganic pyrophosphatase (ppa, Escherichia coli, UniProt P0A7A9); inhibitor, counter-screen, coupling enzyme alone; 30 µM).
The inhibition of Brc1ccccc1-c1nnc(CSc2nnnn2-c2ccccc2)o1 is reported as -6% (Muscarinic acetylcholine receptor M5 (CHRM5, Homo sapiens, UniProt P08912); ligand displacement, radioligand; 10 µM).
The inhibition of C[N+]1(Cc2ccccc2)CCN(CCCN2c3ccccc3Sc3ccc(Cl)cc32)CC1 is reported as 25.8% (Uncharacterized protein; enzyme activity, inhibitor, coupled colorimetric; 30 µM, added: E. coli pyrophosphatase coupling).
For Cc1nn(C)c2nc(Cl)c(C=NOCc3ccc(-c4nc5cc(-c6ccccc6)ccn5c4Nc4ccc(C(=O)O)cc4)cc3)cc12 (mixture of isomers), the inhibition was 87.6% (TDP1; enzyme activity, inhibitor; 100 µM, unpurified compound).
The inhibition of O=C(CSc1nnc(-c2ccco2)c(-c2ccco2)n1)c1ccc(Cl)s1 is reported as 28.3% (Uncharacterized protein; enzyme activity, inhibitor, coupled colorimetric; 30 µM, added: E. coli pyrophosphatase coupling).
For O=C1c2sc(-c3ccc(N4CCC(CO)CC4)nc3F)nc2CCN1c1cccnc1, the inhibition was 8% (Beta-2 adrenergic receptor (ADRB2, Homo sapiens, UniProt P07550); ligand displacement, radioligand; 1 µM).
Cc1nc2c(C)cccn2c1C=NOCc1ccc2nc(-c3ccccc3)c(Nc3ccc(C(=O)O)cc3)n2c1 (mixture of isomers) gave an inhibition of 1.3% (TDP1; enzyme activity, inhibitor; 100 µM, unpurified compound).
O=C1c2sc(-c3ccc(N4CCC(F)C4)nc3F)nc2CCN1c1cccnc1 (stereo not shown) has an inhibition of -14% (GABA-A receptor; GABA-A site (alpha1/beta2 interface), with gamma-2 subunit (Homo sapiens, UniProt P14867+P47870); radioligand binding; 1 µM, added: agonist radioligand).
O=C(O)c1ccc(Nc2c(-c3ccc(CON=Cc4cc(F)cc5c4OCOC5)cc3)nc3cc(-c4ccccc4)ccn23)cc1 (mixture of isomers) gave an inhibition of 23.9% (TDP1; enzyme activity, inhibitor; 100 µM, unpurified compound).
